Measurements of several laboratories.
Protocols differ between the studies behind these lines. ± gives the spread as reported.
NMNAT1: NMNAT1 (Homo sapiens, UniProt Q9HAN9)
HDAC3: Histone deacetylase 3 (HDAC3, Homo sapiens, UniProt O15379)
Sequence of UniProt O15379 (whole entry, looked up): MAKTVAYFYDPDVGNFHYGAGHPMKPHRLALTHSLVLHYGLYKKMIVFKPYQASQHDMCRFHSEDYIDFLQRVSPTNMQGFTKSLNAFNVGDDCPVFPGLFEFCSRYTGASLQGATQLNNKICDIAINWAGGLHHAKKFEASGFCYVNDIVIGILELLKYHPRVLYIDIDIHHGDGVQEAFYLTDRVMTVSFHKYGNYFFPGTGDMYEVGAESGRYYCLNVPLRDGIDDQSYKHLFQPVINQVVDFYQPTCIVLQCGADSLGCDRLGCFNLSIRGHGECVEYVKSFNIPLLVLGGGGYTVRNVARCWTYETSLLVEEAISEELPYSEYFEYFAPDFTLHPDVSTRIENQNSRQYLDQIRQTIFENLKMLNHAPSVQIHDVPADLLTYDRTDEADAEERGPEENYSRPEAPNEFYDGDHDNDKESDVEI
DRD4: D(4) dopamine receptor (DRD4, Homo sapiens, UniProt P21917)
Sequence of UniProt P21917 (whole entry, looked up): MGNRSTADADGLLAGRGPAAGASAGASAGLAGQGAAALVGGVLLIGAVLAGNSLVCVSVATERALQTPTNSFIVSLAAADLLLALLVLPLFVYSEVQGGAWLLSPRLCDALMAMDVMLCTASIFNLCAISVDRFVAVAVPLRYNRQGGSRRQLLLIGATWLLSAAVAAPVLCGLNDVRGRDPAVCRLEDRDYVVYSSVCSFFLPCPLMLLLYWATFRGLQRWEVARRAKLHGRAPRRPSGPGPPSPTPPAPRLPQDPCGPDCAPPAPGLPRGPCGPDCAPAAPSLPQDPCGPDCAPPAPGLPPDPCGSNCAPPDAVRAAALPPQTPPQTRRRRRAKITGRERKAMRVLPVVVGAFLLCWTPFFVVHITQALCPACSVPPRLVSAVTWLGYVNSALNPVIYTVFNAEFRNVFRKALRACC
Breakpoint cluster region protein GAP domain: Breakpoint cluster region protein, GAP domain (Homo sapiens, UniProt P11274)
Sequence of UniProt P11274 (whole entry, looked up): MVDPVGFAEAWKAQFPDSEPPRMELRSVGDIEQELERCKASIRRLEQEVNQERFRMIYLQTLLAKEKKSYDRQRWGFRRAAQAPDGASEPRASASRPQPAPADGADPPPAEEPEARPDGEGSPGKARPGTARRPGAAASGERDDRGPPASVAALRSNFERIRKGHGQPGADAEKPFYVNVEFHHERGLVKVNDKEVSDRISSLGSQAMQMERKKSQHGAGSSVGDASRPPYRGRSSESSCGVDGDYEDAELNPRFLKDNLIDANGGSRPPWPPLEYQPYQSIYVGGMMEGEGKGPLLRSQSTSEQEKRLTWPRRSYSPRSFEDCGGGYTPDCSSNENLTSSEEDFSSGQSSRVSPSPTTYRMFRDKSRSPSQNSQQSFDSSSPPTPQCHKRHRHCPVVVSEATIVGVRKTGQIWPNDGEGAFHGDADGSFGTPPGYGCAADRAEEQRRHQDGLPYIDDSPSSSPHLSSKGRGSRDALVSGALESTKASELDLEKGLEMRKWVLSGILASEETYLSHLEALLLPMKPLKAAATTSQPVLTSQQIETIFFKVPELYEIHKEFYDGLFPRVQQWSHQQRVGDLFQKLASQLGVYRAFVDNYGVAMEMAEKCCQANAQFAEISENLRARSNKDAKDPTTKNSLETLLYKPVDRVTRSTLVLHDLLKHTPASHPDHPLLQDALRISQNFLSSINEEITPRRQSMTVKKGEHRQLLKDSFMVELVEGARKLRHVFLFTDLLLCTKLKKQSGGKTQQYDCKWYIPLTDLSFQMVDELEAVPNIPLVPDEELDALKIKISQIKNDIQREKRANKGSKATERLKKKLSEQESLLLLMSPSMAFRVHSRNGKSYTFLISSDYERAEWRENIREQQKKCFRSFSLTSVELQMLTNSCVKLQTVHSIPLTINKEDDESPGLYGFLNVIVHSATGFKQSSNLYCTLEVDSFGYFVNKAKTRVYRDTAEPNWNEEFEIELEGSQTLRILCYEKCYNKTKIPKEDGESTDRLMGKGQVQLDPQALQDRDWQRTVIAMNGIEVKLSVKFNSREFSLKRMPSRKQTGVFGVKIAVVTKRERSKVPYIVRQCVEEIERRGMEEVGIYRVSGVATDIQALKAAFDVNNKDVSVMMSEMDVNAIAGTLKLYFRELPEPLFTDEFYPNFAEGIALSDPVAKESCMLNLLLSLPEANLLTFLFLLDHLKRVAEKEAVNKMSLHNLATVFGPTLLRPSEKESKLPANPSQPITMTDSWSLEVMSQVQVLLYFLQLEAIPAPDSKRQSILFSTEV
PARP2: Poly [ADP-ribose] polymerase 2 (PARP2, Homo sapiens, UniProt Q9UGN5)
Sequence of UniProt Q9UGN5 (whole entry, looked up): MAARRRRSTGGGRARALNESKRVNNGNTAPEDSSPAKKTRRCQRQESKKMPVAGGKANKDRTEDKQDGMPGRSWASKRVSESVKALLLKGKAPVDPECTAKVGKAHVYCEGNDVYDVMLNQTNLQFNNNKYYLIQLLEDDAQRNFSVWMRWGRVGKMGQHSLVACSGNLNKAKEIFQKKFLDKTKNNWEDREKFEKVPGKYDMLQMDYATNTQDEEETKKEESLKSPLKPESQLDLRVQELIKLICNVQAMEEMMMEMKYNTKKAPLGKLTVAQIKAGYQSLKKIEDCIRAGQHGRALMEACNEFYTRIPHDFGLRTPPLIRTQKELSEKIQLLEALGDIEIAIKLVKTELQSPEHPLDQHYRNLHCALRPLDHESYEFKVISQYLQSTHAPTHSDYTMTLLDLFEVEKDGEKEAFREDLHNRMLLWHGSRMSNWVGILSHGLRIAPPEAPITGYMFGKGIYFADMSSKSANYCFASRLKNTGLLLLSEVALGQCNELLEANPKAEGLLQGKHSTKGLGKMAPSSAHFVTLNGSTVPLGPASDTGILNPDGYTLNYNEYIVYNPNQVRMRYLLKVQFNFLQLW
PLAT: Tissue-type plasminogen activator (PLAT, Homo sapiens, UniProt P00750)
Sequence of UniProt P00750 (whole entry, looked up): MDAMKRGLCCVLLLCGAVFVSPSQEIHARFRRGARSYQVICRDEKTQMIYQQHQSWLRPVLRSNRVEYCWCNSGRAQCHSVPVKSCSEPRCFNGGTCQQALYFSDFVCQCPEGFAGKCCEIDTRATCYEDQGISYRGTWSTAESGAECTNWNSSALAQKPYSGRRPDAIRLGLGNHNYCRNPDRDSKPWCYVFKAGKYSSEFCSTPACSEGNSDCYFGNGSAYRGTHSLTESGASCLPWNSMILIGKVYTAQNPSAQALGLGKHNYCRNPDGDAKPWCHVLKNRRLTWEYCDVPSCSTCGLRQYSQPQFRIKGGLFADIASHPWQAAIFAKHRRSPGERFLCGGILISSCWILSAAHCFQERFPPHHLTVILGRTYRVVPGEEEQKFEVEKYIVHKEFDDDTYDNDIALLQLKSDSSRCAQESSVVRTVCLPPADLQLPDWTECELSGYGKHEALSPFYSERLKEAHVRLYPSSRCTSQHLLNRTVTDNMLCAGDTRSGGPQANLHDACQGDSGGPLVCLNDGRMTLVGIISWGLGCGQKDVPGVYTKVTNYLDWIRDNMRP
SPHK1: Sphingosine kinase 1 (SPHK1, Homo sapiens, UniProt Q9NYA1)
Sequence of UniProt Q9NYA1 (whole entry, looked up): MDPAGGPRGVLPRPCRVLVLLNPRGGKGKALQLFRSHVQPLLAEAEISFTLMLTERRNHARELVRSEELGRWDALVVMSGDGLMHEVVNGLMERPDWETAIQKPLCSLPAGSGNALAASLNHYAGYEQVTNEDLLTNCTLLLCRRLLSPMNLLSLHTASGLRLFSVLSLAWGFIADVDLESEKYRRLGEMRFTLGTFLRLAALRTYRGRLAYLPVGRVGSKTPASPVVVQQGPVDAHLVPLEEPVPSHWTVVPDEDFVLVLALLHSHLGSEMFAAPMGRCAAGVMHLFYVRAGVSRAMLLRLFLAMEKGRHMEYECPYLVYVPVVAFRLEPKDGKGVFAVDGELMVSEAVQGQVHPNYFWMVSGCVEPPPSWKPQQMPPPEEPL
Neutral cholesterol ester hydrolase 1: Neutral cholesterol ester hydrolase 1 (Mus musculus, UniProt Q8BLF1)
Sequence of UniProt Q8BLF1 (whole entry, looked up): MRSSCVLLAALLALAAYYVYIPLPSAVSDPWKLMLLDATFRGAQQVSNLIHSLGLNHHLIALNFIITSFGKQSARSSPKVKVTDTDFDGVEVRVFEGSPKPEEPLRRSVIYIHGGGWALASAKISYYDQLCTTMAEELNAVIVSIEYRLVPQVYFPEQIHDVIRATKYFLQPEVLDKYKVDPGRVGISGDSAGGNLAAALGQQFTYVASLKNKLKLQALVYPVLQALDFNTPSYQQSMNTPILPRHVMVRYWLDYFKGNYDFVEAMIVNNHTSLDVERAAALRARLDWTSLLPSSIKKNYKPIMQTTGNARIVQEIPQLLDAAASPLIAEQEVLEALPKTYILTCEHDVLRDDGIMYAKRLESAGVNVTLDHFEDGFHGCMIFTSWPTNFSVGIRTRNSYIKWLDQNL
sn-1-specific diacylglycerol lipase ABHD11: sn-1-specific diacylglycerol lipase ABHD11 (Mus musculus, UniProt Q8K4F5)
Sequence of UniProt Q8K4F5 (whole entry, looked up): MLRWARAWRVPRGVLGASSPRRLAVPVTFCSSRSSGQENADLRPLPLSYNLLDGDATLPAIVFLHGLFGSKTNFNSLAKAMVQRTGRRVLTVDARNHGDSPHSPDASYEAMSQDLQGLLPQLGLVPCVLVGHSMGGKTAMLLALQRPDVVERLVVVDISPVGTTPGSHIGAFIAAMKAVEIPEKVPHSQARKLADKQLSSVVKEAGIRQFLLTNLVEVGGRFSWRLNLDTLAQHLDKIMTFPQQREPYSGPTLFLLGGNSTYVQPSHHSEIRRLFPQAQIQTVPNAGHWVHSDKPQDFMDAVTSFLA
Platelet-activating factor acetylhydrolase 2, cytoplasmic: Platelet-activating factor acetylhydrolase 2, cytoplasmic (Mus musculus, UniProt Q8VDG7)
Sequence of UniProt Q8VDG7 (whole entry, looked up): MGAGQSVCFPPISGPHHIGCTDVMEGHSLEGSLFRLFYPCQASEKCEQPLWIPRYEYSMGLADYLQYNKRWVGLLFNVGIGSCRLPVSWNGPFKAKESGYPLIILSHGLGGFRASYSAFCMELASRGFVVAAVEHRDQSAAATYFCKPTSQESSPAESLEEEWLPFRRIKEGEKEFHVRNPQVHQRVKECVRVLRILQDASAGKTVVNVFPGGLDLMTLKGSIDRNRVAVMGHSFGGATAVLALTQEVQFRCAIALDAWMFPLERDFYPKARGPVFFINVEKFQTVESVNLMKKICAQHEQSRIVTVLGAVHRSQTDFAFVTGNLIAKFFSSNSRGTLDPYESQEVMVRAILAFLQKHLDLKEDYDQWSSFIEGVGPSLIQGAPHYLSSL
Sequence of UniProt P97823 (whole entry, looked up): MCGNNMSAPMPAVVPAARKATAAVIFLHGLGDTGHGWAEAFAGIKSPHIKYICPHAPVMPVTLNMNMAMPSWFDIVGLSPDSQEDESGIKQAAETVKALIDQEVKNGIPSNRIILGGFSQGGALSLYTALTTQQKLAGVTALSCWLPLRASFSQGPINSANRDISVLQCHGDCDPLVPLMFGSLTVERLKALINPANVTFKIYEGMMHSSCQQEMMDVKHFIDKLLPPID

With `C[Si]1(C[C@H](CN)CC(=O)O)CCCC1` the inhibition was 87% (Voltage-dependent calcium channel subunit alpha-2/delta-1 (Rattus norvegicus, UniProt P54290); binding, radioligand binding; rat cerebral cortex membranes; 70 µM, with: [3H]gabapentin).
For `O=C(N(c1ccccc1)c1ccccc1)n1ccnn1`, the inhibition was < 50% (Acyl-protein thioesterase 1 (Lypla1, Mus musculus, UniProt P97823); 1 µM).
`Cn1sc(Nc2c(Cl)ccc3ncccc23)c(C#N)c1=O` has an inhibition of 39% (NMNAT1; enzyme activity, inhibitor; 10 µM).
The inhibition of `Cc1c(COc2cc(OCc3cccc(C#N)c3)c(CNC(CO)CO)cc2Cl)cccc1-c1cccc(OCCCCCCC(=O)NO)c1` is reported as 94% (HDAC3; enzyme activity, inhibitor; 1 µM).
For `CC(C)(C)c1ccccc1OS(=O)(=O)Oc1cccc(C(=O)NO)c1`, the inhibition was 37% (Histone deacetylase 3, with NCoR2 DAD (HDAC3, Homo sapiens, UniProt O15379); enzyme activity, fluorogenic; 10 µM).
The inhibition of `O=[N+]([O-])c1ccc(Cn2cc(Cn3cc(CO)nn3)nn2)cc1` is reported as 82 ± 7% (1-phosphatidylinositol 4,5-bisphosphate phosphodiesterase delta-1, PH domain (Plcd1, Rattus norvegicus, UniProt P10688); PI(4,5)P2 binding to PH domain, SPR; 50 µM).
With `N=C(N)NCCCC(NC(=O)C(CC(=O)NO)Cc1ccc2ccccc2c1)C(=O)NC(Cc1c[nH]c2ccccc12)C(=O)NC(CCC(=O)O)C(N)=O` (stereo not shown) the inhibition was 0% (MMP1 (Homo sapiens, UniProt P03956); 1 µM).
The inhibition of `COc1ncc2nc(C)n(Cc3ncc(S(N)(=O)=O)cc3F)c2c1-c1ccccc1` is reported as 1.99% (GABA-A receptor; alpha-1/beta-2/gamma-2 (Homo sapiens, UniProt P14867+P18507+P47870); antagonist, cell-based; 10 µM).
With `C/C=C/C(=O)Nc1ccc2nc(NCCCCCN(C)C)nc(NCCCCCCN(C)C)c2c1` the inhibition was 3% (DNMT1 (Homo sapiens, UniProt P26358); enzyme activity, inhibitor, radiometric; 10 µM).
For `Cc1csc(OCC2CN(Cc3ncc4ccccn34)CCC2(F)F)n1` (stereo not shown), the inhibition was -2.8% (DRD4; ligand displacement, radioligand; 10 µM).
With `COc1ccc2c(c1)-c1nc(N)sc1CC2` the inhibition was 44.2% (Breakpoint cluster region protein GAP domain; GAP activity; 10 µM, selectivity counter screen).
`O=C(CCCc1ccc2c(c1)OCCO2)NCCNC(=O)Cn1c(=O)[nH]c(=O)c2ccccc21` gave an inhibition of 0% (PARP2; enzyme activity, inhibitor; 5 nM).
For `CN1CC[C@@H](COc2cnc(C#N)cc2-c2ccn3nc(NC(=O)C4CC4)cc3c2)C1`, the inhibition was -2% (PIP4K2A (Homo sapiens, UniProt P48426); enzyme activity, inhibitor; 1 µM).
`O=C(CC1CC2CCC1C2)NCCNC(=O)Cn1c(=O)[nH]c(=O)c2ccccc21` (stereo not shown) has an inhibition of 0% (PARP2; enzyme activity, inhibitor; 5 nM).
`COC1CN([C@H]2CC[C@H]([C@@]3(C)Oc4c(Cl)cc(C(=O)NCc5c(SC)cc(C)[nH]c5=O)c(C)c4O3)CC2)C1` — result for “log2 fold change”: 1.53 (RNA-seq, refers to: RAB36; human, whole blood; dose not given, 24 h; relative to: pretreatment baseline).
The inhibition of `O=C1c2sc(-c3ccc(N4CCC(CO)CC4)nc3F)nc2CCN1c1cccnc1` is reported as 0% (AMPA receptor; radioligand binding; 1 µM, with: agonist radioligand).
The inhibition of `Cc1c(COc2cc(OCc3cccc(C#N)c3)c(CNC(C)(CO)CO)cc2Cl)cccc1-c1cccc(OCCCCCCC(=O)NO)c1` is reported as 95.7% (HDAC3; enzyme activity, inhibitor; 1 µM).
`CCCCCCCCCCCCCCCC(=O)N[C@@H](CCCCN)C(=O)N[C@@H](CCCCN)C(=O)N[C@@H](CO)C(=O)N[C@@H](CCCNC(=N)N)C(=O)N[C@@H](C)C(=O)N[C@@H](CC(C)C)C(=O)N[C@@H](Cc1ccccc1)C(N)=O` has an inhibition of 11% (F2R (Homo sapiens, UniProt P25116); platelet aggregation, antagonist, light transmittance aggregometry; human, platelet-rich plasma ex vivo; 0.3 mg/kg, 24 h or discharge, with: SFLLRN 20 µM; relative to: baseline).
For `CCC(=O)N(C)c1ccc(Cl)c(Cl)c1`, the inhibition was < 10% (CXCR2 (Homo sapiens, UniProt P25025); ligand displacement, radioligand; 10 µM).
With `CN(Cc1ccc(/C=C/C(=O)NO)cc1)CC12CC3CC(CC(C3)C1)C2` the inhibition was 7% (human MC4 receptor; agonist radioligand binding; 0.05 µM).
The inhibition of `COc1ccc(CN2CC(COc3nc(C)cs3)CC(F)(F)C2)cc1F` (stereo not shown) is reported as -4.6% (DRD4; ligand displacement, radioligand; 10 µM).
With `Brc1ccccc1-c1nnc(CSc2nnnn2-c2ccccc2)o1` the inhibition was -14% (SLC6A4 (Homo sapiens, UniProt P31645); ligand displacement, radioligand; 10 µM).
With `C[Si](C)(C)C[C@@H](CN)CC(=O)O` the inhibition was 2% (L-type calcium channel, rat; binding, radioligand binding; 75 µM).
The inhibition of `C=CCNC(=O)[C@H](CCc1ccccc1)NC(=O)[C@H](CC(=O)NCC(C)(C)C)NC(=O)CCc1ccccc1` is reported as 12% (PLAT; enzyme activity, inhibitor; 100 µM).
For `Cc1c(COc2cc(OCc3cccc(C#N)c3)c(CNC(CO)CO)cc2Cl)cccc1-c1cccc(OCCCCCC(=O)NO)c1`, the inhibition was 85.1% (HDAC3; enzyme activity, inhibitor; 1 µM).
`Cc1cccc(O[C@H]2CCC[C@@H](C(C)CNCc3ccncc3)C2)c1` (relative stereo) gave an inhibition of 5% (SPHK1; enzyme activity, inhibitor; 1 µM).
The inhibition of `Cc1ccc(CN(C)C(=O)C(CCc2ccccc2)NC(=O)C(NC(=O)c2ccc(OCc3ccccc3)cc2)C(C)O)cc1` (stereo not shown) is reported as 14% (PLAT; enzyme activity, inhibitor; 100 µM).
`Clc1ccc(NCc2ccc(Br)cc2)cc1` has an inhibition of 81.7% (Breakpoint cluster region protein GAP domain; GAP activity; 10 µM, selectivity counter screen).
For `CC(C)NC(=O)[C@H](CCc1ccccc1)NC(=O)[C@H](CC(=O)NCC(C)(C)C)NC(=O)CCc1ccccc1`, the inhibition was 8% (PLAT; enzyme activity, inhibitor; 100 µM).
The inhibition of `O=C(n1ccnn1)n1c2ccccc2c2ccccc21` is reported as < 50% (Neutral cholesterol ester hydrolase 1; probe labeling, inhibitor, gel-based competitive ABPP; mouse T-cell proteome; 1 µM, 30 min, 37 °C).
The inhibition of `CCn1cc(C(=O)O)c(=O)c2c(N)c(F)c(NC3CCCCC3)cc21` is reported as -3.8% (Cyclin-dependent kinase 17, with p35 (CDK17, Homo sapiens, UniProt Q00537); kinase activity; 0.1 µM, with: ATP at Km).
The inhibition of `Cn1c(CNc2ccccc2Cl)nc2ccccc21` is reported as 36% (Breakpoint cluster region protein GAP domain; GAP activity; 10 µM, selectivity counter screen).
The inhibition of `O=C(Nc1ccc(C(F)F)cc1)[C@H](CC1CCCCC1)Nc1nn2c(=O)ccnc2s1` is reported as 10% (PTPN6 (Homo sapiens, UniProt P29350); enzyme activity, inhibitor; 10 µM).
With `CNS(=O)(=O)Nc1nccc(Cc2c(C)c3ccc(Oc4ncccc4F)cc3oc2=O)c1F` the IC50 was > 1000 nM (Ca Ski; cell viability, CellTiter-Glo; 7 days).
For `Cc1c(COc2cc(OCc3cccc(C#N)c3)c(CNCCO)cc2Cl)cccc1-c1cccc(OCc2ccc(/C=C/C(=O)NO)cc2)c1`, the inhibition was 24.4% (HDAC3; enzyme activity, inhibitor; 1 µM).
For `Cc1cc(C(=O)NCCNC(=O)c2cccc(COc3ccccc3C(N)=O)c2)n[nH]1`, the inhibition was 99% (PARP2; enzyme activity, inhibitor; 50 nM).
`CCCCCCN(O)C(=O)CCCCC[C@@H]1NC(=O)[C@H]([C@@H](C)CC)NC(=O)[C@H](Cc2ccccc2C(F)(F)F)NC(=O)CCSCc2cccc(n2)CSCCCNC1=O` has an inhibition of 35% (HDAC3; enzyme activity, inhibitor, fluorogenic; 30 µM).
`CN(C(=O)n1ccnn1)c1ccccc1` gave an inhibition of > 95% (sn-1-specific diacylglycerol lipase ABHD11; serine hydrolase activity, inhibitor, competitive gel-based ABPP; mouse T-cell proteome; 1 µM, 30 min, 37 °C).
The inhibition of `Fc1cccc(OCC2CN(Cc3ncc4ccccn34)CCC2(F)F)c1` (stereo not shown) is reported as 42% (DRD4; ligand displacement, radioligand; 10 µM).
For `COc1ccc2nc(C)ccc2c1Nc1sn(C)c(=O)c1C#N`, the inhibition was 67% (NMNAT1; enzyme activity, inhibitor; 10 µM).
For `C=CC(=O)Nc1cccc(-c2cnc3[nH]cc(C(=O)NC(C)(C)C)c3n2)c1`, the inhibition was -4% (SPHK1; enzyme activity, inhibitor; 0.1 µM).
For `Cc1c(COc2cc(OCc3cccc(C#N)c3)c(CN3CCCC[C@@H]3C(=O)O)cc2Cl)cccc1-c1cccc(OCc2ccc(/C=C/C(=O)NO)cc2)c1`, the inhibition was 59.2% (HDAC3; enzyme activity, inhibitor; 1 µM).
The inhibition of `O=C(N1CCCC1)n1ccnn1` is reported as > 95% (Platelet-activating factor acetylhydrolase 2, cytoplasmic; serine hydrolase activity, inhibitor, competitive gel-based ABPP; mouse T-cell proteome; 1 µM, 30 min, 37 °C).
`Cc1ncsc1-c1ccc(C(C)NC(=O)C2CC(O)CN2C(=O)C(NC(=O)CCCCCCCCCCN2CCCC(Nc3ncc(Cl)c(Nc4ccccc4S(=O)(=O)C(C)C)n3)C2)C(C)(C)C)cc1` (stereo not shown) — result for “log2 fold change”: -1.6 (22Rv1; RNA-seq, refers to: PRR15L mRNA; concentration not given; relative to: DMSO).
`O=C1c2sc(-c3ccc(N4CCC(F)C4)nc3F)nc2CCN1c1cccnc1` (stereo not shown) has an inhibition of -4% (ADORA2B (Homo sapiens, UniProt P29275); ligand displacement, radioligand; 1 µM).
With `CCCCCCC#Cc1cncc(-c2nnc(SC[C@H]3O[C@@H](n4ccc(=O)[nH]c4=O)[C@@H]4OC(C)(C)O[C@@H]43)n2C)c1` the inhibition was ~28% (mraY (Staphylococcus aureus, UniProt Q2FZ93); cell-free assay, inhibitor; 250 µM).
`CC(=O)N[C@@H](Cc1ccccc1Cl)C(=O)N[C@@H](CCC(=O)O)C(=O)N[C@@H](C)C(=O)N[C@@H](CC(=O)O)C(=O)COC(=O)c1c(C)cccc1C` gave a kinact/KI of 374000 M⁻¹ s⁻¹ (Caspase-10 (CASP10, Homo sapiens, UniProt Q92851); enzyme activity, inhibitor).
The inhibition of `C=CCN(CC=C)C(=O)n1ccnn1` is reported as < 50% (Platelet-activating factor acetylhydrolase 2, cytoplasmic; serine hydrolase activity, inhibitor, competitive gel-based ABPP; mouse T-cell proteome; 1 µM, 30 min, 37 °C).
With `CC(=O)NCCNCc1cc(Cl)c(OCc2cccc(-c3cccc(OCCCCCCC(=O)NO)c3)c2C)cc1OCc1cccc(C#N)c1` the inhibition was 74.7% (HDAC3; enzyme activity, inhibitor; 1 µM).
`C[C@@H]1CN(Cc2ccccc2)[C@H]2C[C@@H]1CC(=O)[C@@H]2C` gave an inhibition of 23% (Oprd1 (Rattus norvegicus, UniProt P33533); ligand displacement, radioligand; 1 µM).
With `CS(=O)(=O)Nc1cccc(-c2csc3cnc(Nc4ccc(N5CCN(CCCCCOc6cccc7c6C(=O)N(C6CCC(=O)NC6=O)C7=O)CC5)cc4)nc23)c1` (stereo not shown) the inhibition was -7.12% (PRKDC (Homo sapiens, UniProt P78527); target engagement in cells, inhibitor, chemoproteomics; MOLT-4; 1 µM).
With `CN1CCN(C(=O)n2ccnn2)CC1` the inhibition was < 50% (Neutral cholesterol ester hydrolase 1; probe labeling, inhibitor, gel-based competitive ABPP; mouse T-cell proteome; 1 µM, 30 min, 37 °C).
For `COc1cc(-c2cn(C)c(=O)c3cnccc23)cc(OC)c1CN(C)C`, the inhibition was -7.14% (TRIM24 (Homo sapiens, UniProt O15164); 1 µM).
For `CCN(CC)C(=O)n1ccnn1`, the inhibition was < 50% (sn-1-specific diacylglycerol lipase ABHD11; serine hydrolase activity, inhibitor, competitive gel-based ABPP; mouse T-cell proteome; 1 µM, 30 min, 37 °C).
`C[C@@H](O)[C@@H]1NC(=O)[C@H](CCCCN)NC(=O)[C@@H](Cc2c[nH]c3ccccc23)NC(=O)[C@H](Cc2ccc(O)cc2)NC(=O)[C@@H](NC(=O)[C@@H](Cc2ccccc2)NC(=O)CN2CCN(CC(=O)O)CCN(CC(=O)O)CCN(CC(=O)O)CC2)CSSC[C@@H](C(=O)N[C@H](CO)[C@@H](C)O)NC1=O` [gallium-67 labelled] has a tissue uptake of 1.93 ± 0.54 %ID/g (gamma counting; ICR mice, male, spleen; iv, 11 kBq/mouse, 1 h).
